Assay results from different studies.
Each line is one published result; not all experiments were run side by side. Values joined by “and” are separate records of one study, mostly repeats; a detail may differ. ± marks the error that the study gave.
UniProt Q9NZP8, sequence (whole entry, looked up): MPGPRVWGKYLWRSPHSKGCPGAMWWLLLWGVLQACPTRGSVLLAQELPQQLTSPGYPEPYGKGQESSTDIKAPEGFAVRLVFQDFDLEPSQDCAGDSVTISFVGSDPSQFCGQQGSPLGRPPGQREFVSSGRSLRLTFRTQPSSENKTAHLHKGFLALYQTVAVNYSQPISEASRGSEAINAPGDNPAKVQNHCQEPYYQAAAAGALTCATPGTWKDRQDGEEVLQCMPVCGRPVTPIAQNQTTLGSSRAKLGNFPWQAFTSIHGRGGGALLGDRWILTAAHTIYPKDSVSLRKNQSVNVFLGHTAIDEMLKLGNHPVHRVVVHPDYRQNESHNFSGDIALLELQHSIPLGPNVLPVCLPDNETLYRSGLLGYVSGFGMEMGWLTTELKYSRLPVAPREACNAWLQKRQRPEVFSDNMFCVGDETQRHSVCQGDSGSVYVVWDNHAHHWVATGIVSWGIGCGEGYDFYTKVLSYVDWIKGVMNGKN

SMILES	target or system	assay	test system	conditions	scale	endpoint	result
CO/N=C1\C[C@]2(C[C@@H]3C[C@@H](C/C=C(\C)C[C@@H](C)/C=C/C=C4\CO[C@@H]5[C@H](O)C(C)=C[C@@H](C(=O)O3)[C@]45O)O2)O[C@H](/C(C)=C/C(C)C)[C@H]1C	CAR-luc cells	–	–	–	–	IC50	22.3 ± 2.05 µM
CC[C@H](C)[C@@H]1NC(=O)[C@@H]2CCCN2C(=O)[C@H](CC(C)C)NC(=O)[C@H](CC(C)C)NC(=O)CNC(=O)[C@@H](NC(=O)[C@@H](NC(=O)[C@H](CC(=O)O)NC(=O)CNC(=O)[C@@H](NC(=O)[C@H](C)NC(=O)CNC(=O)[C@H](CCCCN)NC(=O)[C@H](CC(C)C)NC(=O)[C@H](CC(C)C)NC(=O)[C@H](CCCCN)NC(=O)CNC(=O)[C@@H](NC(=O)[C@@H](N)CC(C)C)C(C)C)C(C)C)C(C)C)CSSC[C@@H](C(=O)O)NC1=O	–	RNA-seq, measured: Pirb mRNA	mouse traumatic brain injury, frontal cortex and hippocampus	dose not given	relative to: TBI plus compound vs TBI	log2 fold change	-2.89
CN1CCN(S(=O)(=O)c2cc([N+](=O)[O-])ccc2N(CCOS(C)(=O)=O)CCOS(C)(=O)=O)CC1	sample DA T-ALL PDX cells	cell viability	ex vivo	48 h, together with: AKR1C3 inhibitor 1 µM, 1 h pretreatment	–	IC50	6.91 µM
CO[C@H]1C[C@H](O[C@@H]2/C(C)=C/C[C@@H]3C[C@@H](C[C@]4(CC[C@H](C)[C@@H](C5CCCCC5)O4)O3)OC(=O)[C@@H]3C=C(C)/C(=N/O)[C@H]4OC/C(=C\C=C\[C@@H]2C)[C@]43O)O[C@@H](C)[C@@H]1O	CAR-luc cells	–	–	–	–	IC50	21.6 ± 1.3 µM
COc1cc2c(Oc3ccc4[nH]c(C)cc4c3F)ccnc2cc1OCC1(N)CC1	–	measured: grade 1 or 2 intestinal obstruction	paediatric high-risk refractory sarcoma	8 mg	–	incidence of adverse event	0%
c1csc(-c2ccc(-c3cccs3)s2)c1	PH5CH8	steatosis, inhibitor, high-content imaging	–	–	–	IC50	~0.1 µM
CN(C)C(=O)c1cc2cnc(Nc3ccc(N4CCNCC4)cn3)nc2n1C1CCCC1	patient-derived GBM lines sample A, sample B, sample C, sample D	cell viability	–	72 h	–	IC50	0.8 to 3.6 µM
COc1cc(Nc2ncc(F)c(Nc3ccc4c(n3)NC(=O)C(C)(C)O4)n2)cc(OC)c1OC	imidazoline I2 receptor	–	peripheral	–	–	IC50	> 10 µM
COc1cc(C[C@H]2COC(=O)[C@@H]2Cc2ccc(O)c(OC)c2)ccc1O	neuroblastoma M2, MYCN overexpressing	cell viability, SRB	–	together with: doxycycline	–	IC50	3.55 µg/mL
Cc1cc(O)c2c(c1)C(=O)C=CC2=O	HFF-1	cytotoxicity, MTT	–	48 h	–	IC50	4.7 µM
O=C(c1ccc(Cl)cc1)N1CCN2C(=O)N(OC(=O)N3CCOc4ccccc43)C(=O)C2C1 (stereo not shown)	Complement C1r subcomponent-like protein (C1RL, Homo sapiens, UniProt Q9NZP8)	MS-based ABPP	SW-620 conditioned medium	10 µM, 1 h, 37 °C	relative to: compound over DMSO, lower = more inhibition	peptide ratio	1.03 and 1.12 and 1.05
COc1c(C)c2c(c(O)c1C/C=C(\C)CCC(=O)O)C(=O)OC2	UMUC3	cell proliferation	bladder cancer	–	–	IC50	0.457 µM
Clc1nc[n]([Au][PH](c2ccccc2)(c2ccccc2)c2ccccc2)c1Cl	NCI-H661 parental	cell viability, MTT	–	48 h	–	IC50	1.1 µM
CO[C@@H]1[C@@H](OC(N)=O)[C@@H](O)[C@H](Oc2ccc3c(O)c(NC(=O)c4ccc(O)c(CC=C(C)C)c4)c(=O)oc3c2C)OC1(C)C	DLD-1 BRCA2 knockout	colony survival	–	–	–	IC50	50 to 100 µM
CC(C)=CCOc1c2occc2cc2ccc(=O)oc12	COLO 320 multidrug-resistant	cytotoxicity, MTT	–	24 h, 10% fetal bovine serum	–	IC50	> 100 µM
CC[C@H](C)[C@H](NC(=O)[C@H](Cc1ccccc1)NC(=O)[C@H](CCC(=O)O)NC(=O)[C@H](CCCNC(=N)N)NC(=O)[C@H](C)NC(=O)[C@H](C)NC(=O)[C@H](CCC(N)=O)NC(=O)[C@H](CCC(=O)O)NC(=O)[C@H](CCC(=O)O)NC(=O)[C@H](CC(C)C)NC(=O)[C@H](Cc1ccc(O)cc1)NC(=O)[C@H](CO)NC(=O)[C@H](CO)NC(=O)[C@@H](NC(=O)[C@H](CC(=O)O)NC(=O)[C@H](CO)NC(=O)[C@@H](NC(=O)[C@H](Cc1ccccc1)NC(=O)[C@@H](NC(=O)CNC(=O)[C@H](CCC(=O)O)NC(=O)[C@H](C)NC(=O)CCc1c[nH]cn1)[C@@H](C)O)[C@@H](C)O)C(C)C)C(=O)N[C@@H](C)C(=O)N[C@@H](Cc1c[nH]c2ccccc12)C(=O)N[C@@H](CC(C)C)C(=O)N[C@H](C(=O)N[C@@H](CCCNC(=N)N)C(=O)NCC(=O)N[C@@H](CCCNC(=N)N)C(=O)N[C@@H](CCCCNC(=O)COCCOCCNC(=O)COCCOCCNC(=O)CC[C@H](NC(=O)CCCCCCCCCCCCCCCCC(=O)O)C(=O)O)C(=O)NCC(=O)NCC(=O)N[C@@H](CO)C(=O)N[C@@H](CCCCNc1c(NCCCCCN(O)C(=O)CCC(=O)NCCCCCN(O)C(=O)CCC(=O)NCCCCCN(O)C(C)=O)c(=O)c1=O)C(=O)O)C(C)C [zirconium-89 labelled]	–	ex vivo gamma counting	rat, brain	subcutaneous, 3 nmol/kg, 4 h, together with: [89Zr]-labelled peptide	–	tissue uptake	0.03 %ID/g
